Results from different studies.
“And” joins repeats or separate records; there may be more than shown. Numbers after ± are the reported error.
Sequence of UniProt P40939 (whole entry, looked up): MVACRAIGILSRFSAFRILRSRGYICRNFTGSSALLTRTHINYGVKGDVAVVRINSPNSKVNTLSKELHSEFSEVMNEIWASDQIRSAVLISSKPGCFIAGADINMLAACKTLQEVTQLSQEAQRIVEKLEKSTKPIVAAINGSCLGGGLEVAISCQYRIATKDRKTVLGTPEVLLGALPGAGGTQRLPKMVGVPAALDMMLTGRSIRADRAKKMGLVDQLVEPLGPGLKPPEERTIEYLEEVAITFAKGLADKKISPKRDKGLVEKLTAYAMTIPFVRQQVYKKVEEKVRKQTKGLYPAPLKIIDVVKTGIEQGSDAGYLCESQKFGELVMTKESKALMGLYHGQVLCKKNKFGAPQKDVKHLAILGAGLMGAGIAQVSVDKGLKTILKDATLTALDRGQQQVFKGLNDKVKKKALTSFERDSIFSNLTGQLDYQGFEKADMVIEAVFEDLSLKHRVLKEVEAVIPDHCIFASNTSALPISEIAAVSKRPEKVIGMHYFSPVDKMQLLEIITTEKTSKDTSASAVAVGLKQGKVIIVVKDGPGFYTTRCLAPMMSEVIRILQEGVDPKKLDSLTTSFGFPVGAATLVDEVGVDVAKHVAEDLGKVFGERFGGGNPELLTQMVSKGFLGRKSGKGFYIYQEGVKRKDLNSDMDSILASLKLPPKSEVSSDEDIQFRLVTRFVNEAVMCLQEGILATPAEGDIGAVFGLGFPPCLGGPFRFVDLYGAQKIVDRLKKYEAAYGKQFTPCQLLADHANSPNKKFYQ

Under cytotoxicity, `C[C@@H]1O[C@@H](O[C@H]2C[C@@H](O)[C@]3(CO)[C@H]4[C@H](O)C[C@]5(C)[C@@H](C6=CC(=O)OC6)CC[C@]5(O)[C@@H]4CC[C@]3(O)C2)[C@H](O)[C@H](O)[C@H]1O` is recorded as “not toxic” (SUP-T1; ATP content; 25 µM, 6 h).
The viability of `CC(C)C[C@@H](N)C(=O)N[C@H](Cc1ccccc1)C(=O)N[C@H](Cc1ccccc1)C(=O)N[C@H](C)C(N)=O` is reported as 100% (NGF-differentiated PC-12 neurons; 5 µM, 24 h; reference: untreated).
The maximum inhibition of `C=CC(=O)Nc1cc(Nc2nccc(-c3cn(C)c4ccccc34)n2)c(OC)cc1N(C)CCN(C)C` is reported as 2.93% (human coronavirus OC43; virus-induced cell killing; MRC-5; screen).
For `Cc1cc(O)c2c(=O)c3c(O)cc(O)c4c5c(O)cc(O)c6c(=O)c7c(O)cc(CO)c8c1c2c(c34)c(c65)c78`, the CYP1A1 induction was 1 fold (BEAS-2B; enzyme activity, inducer, fluorogenic substrate imaging; 10 µM, 24 h; reference: control).
`CCn1c2ccccc2c2cc(CN3CCN(Cc4cccc(Cl)c4)CC3)ccc21` gave a cytotoxicity efficacy of 0% (Vero-E6; CellTiter-Glo ATP; concentration not given, 72 h, second round 5-point; reference: DMSO 0%, hyamine -100%, more negative, more toxic).
With `CC(C)C[C@@H](NC(=O)[C@H](N)CCCCN)C(=O)N[C@H](CC(C)C)C(=O)N[C@H](Cc1ccccc1)C(=O)N[C@H](Cc1ccccc1)C(N)=O` the viability was 99% (NGF-differentiated PC-12 neurons; 160 µM, 24 h; reference: untreated).
The CC50 of `CC[C@H](C)[C@H](NC(=O)[C@H](C)NC(=O)[C@H](CO)NC(=O)[C@@H](NC(=O)[C@H](CCCCN)NC(=O)[C@H](CCSC)NC(=O)[C@H](CC(C)C)NC(=O)[C@H](CO)NC(=O)[C@H](CC(C)C)NC(=O)[C@@H](N)CCCNC(=N)N)[C@@H](C)O)C(=O)N[C@@H](CCCCN)C(=O)N[C@@H](CCCCN)C(=O)N[C@H](C(=O)N[C@@H](CCCNC(=N)N)C(=O)N[C@@H](CC(N)=O)C(=O)N1CCC[C@H]1C(=O)N[C@@H](CCCCN)C(=O)NCC(=O)N1CCC[C@H]1C(=O)N[C@@H](CC(C)C)C(=O)N[C@H](C(=O)N[C@@H](CC(C)C)C(=O)N[C@@H](CCCNC(=N)N)C(=O)N[C@@H](CC(C)C)C(=O)NCC(=O)N[C@@H](C)C(=O)N[C@@H](C)C(=O)N1CCC[C@H]1C(=O)N[C@H](C(=O)N[C@H](C(=O)N[C@@H](CCC(N)=O)C(=O)N1CCC[C@H]1C(=O)N[C@H](C(=O)N[C@@H](CCCNC(=N)N)C(=O)N[C@@H](CCCNC(=N)N)C(=O)N[C@H](C(=O)N[C@@H](Cc1ccccc1)C(=O)N1CCC[C@H]1C(=O)N[C@@H](CCCNC(=N)N)C(=O)O)C(C)C)[C@@H](C)O)[C@@H](C)O)C(C)C)[C@@H](C)CC)[C@@H](C)CC` is reported as 236 µM (THP-1, PMA-differentiated; cell viability, MTT).
With `Cc1cc(-c2nn3c(Cn4c(C)nc5ccccc54)nnc3s2)no1` the CC50 was 59 µM (HEp-2; cytotoxicity).
`O=S(=O)(c1ccc(O)cc1)c1ccc(O)cc1` gave a viable cells of 62.4 ± 9.38% (HepG2 spheroids, dissociated; annexin V-FITC/PI flow cytometry; 10 µM, 24 h).
With `CC(C)C[C@@H](NC(=O)[C@H](N)CCCCN)C(=O)N[C@H](CC(C)C)C(=O)N[C@H](Cc1ccccc1)C(=O)N[C@H](Cc1ccccc1)C(=O)N[C@H](C)C(N)=O` the viability was 91% (NGF-differentiated PC-12 neurons; 160 µM, 24 h; reference: untreated).
`N.N.[Cl][Pt][Cl]` has a micronucleated cells of 11.7% (HepaRG; maximum tested).
With `CC(C)C[C@@H](N)C(=O)N[C@H](CC(C)C)C(=O)N[C@H](Cc1ccccc1)C(=O)N[C@H](Cc1ccccc1)C(N)=O` the viability was 61% (NGF-differentiated PC-12 neurons; 10 µM, 24 h; reference: untreated).
`Cc1c2ccccc2c(C)c2c1ccc1ccccc12` — result for “lowest effective concentration”: 12.5 µM (HepaRG; micronucleus formation; 24 (unit not given)).
`Cc1ccc(C)c(Nc2cc(C(=O)NCCCN(C)C3CCCCC3)c3ccccc3n2)c1` gave a cytotoxicity efficacy of -41.8% (Vero-E6; CellTiter-Glo ATP; concentration not given, 72 h, retest 8-point duplicates; reference: DMSO 0%, hyamine -100%, more negative, more toxic).
`C1CCNCC1` — result for “host cell number”: 1.04 ± 0.036 (HCT-8 infected with Cryptosporidium parvum; Hoechst nuclei count; 1 mM, 24 h; reference: PBS).
With `CCCCSCCCNC(=O)C1CCN(Cc2nc(-c3ccc(CC)cc3)oc2C)CC1` the maximum response was -14.6% (Vero-E6; CellTiter-Glo ATP; 72 h, retest 8-point duplicates; reference: DMSO 0%, hyamine -100%, more negative, more toxic).
`CC(C)C[C@@H](N)C(=O)N1CCC[C@@H]1C(=O)N[C@H](Cc1ccccc1)C(=O)N[C@H](Cc1ccccc1)C(=O)N[C@H](C)C(N)=O` gave a viability of 99.9% (NGF-differentiated PC-12 neurons; 80 µM, 24 h; reference: untreated).
`Fc1ccc(-c2nn3c(Cn4nnc5ccccc54)nnc3s2)cc1` has a CC50 of greater than 100 µM (HEp-2; cytotoxicity).
`O=NN1CC2CC(C1)c1cc3nccnc3cc12` gave a relative survival of 80.5% (TK6; 80 µM, 4 h, added: hamster liver S9; reference: vehicle).
The viability of `COc1ccc(Nc2nn3c(-c4ccccc4)ccnc3c2C(=O)Nc2ccc(Cl)cc2)cc1` is reported as 97.7% (WI-38; MTT; serum-free medium; 31.13 µg/mL, 48 h).
`Cc1ccc(-c2cccc(CN3CCCC(c4nc5ccc(C)cc5c(=O)[nH]4)C3)c2)c(C)c1` (stereo not shown) gave a cytotoxicity efficacy of 0% (Vero-E6; CellTiter-Glo ATP; concentration not given, 72 h, retest 8-point duplicates; reference: DMSO 0%, hyamine -100%, more negative, more toxic).
`Brc1ccc(-c2nn3c(Cn4nnc5ccccc54)nnc3s2)cc1` gave a CC50 of greater than 100 µM (HEp-2; cytotoxicity).
The viability of `CC(C)C[C@@H](NC(=O)[C@H](N)CCCCN)C(=O)N1CCC[C@@H]1C(=O)N[C@H](Cc1ccccc1)C(=O)N[C@H](Cc1ccccc1)C(=O)N[C@H](C)C(=O)N[C@H](CCC(=O)O)C(N)=O` is reported as 96% (NGF-differentiated PC-12 neurons; 20 µM, 24 h; reference: untreated).
The viable cells of `Cc1cc(C(C)(C)c2ccc(O)c(C)c2)ccc1O` is reported as 72.7 ± 2.93% (HepG2 spheroids, dissociated; annexin V-FITC/PI flow cytometry; 1 µM, 24 h).
The viability of `CC(C)C[C@@H](N)C(=O)N[C@H](Cc1ccccc1)C(=O)N[C@H](Cc1ccccc1)C(=O)N[C@H](C)C(=O)N[C@H](CCC(=O)O)C(N)=O` is reported as 75.6% (NGF-differentiated PC-12 neurons; 20 µM, 24 h; reference: untreated).
For `CCCCN(CCCC)CCCNC(=O)c1cc(-c2ccc(Cl)s2)nc2ccccc12`, the maximum response was -10.2% (Vero-E6; CellTiter-Glo ATP; 72 h, second round 5-point; reference: DMSO 0%, hyamine -100%, more negative, more toxic).
With `CCCCCCCCCCCC[N+](C)(C)Cc1ccccc1.[Br-]` the cell viability was roughly 40% (PC-12; CCK-8; 10 µM, light-degraded residues of compound, added: sunlight 100 mW/cm^2 for 4 h).
The half-life of `N#C[C@@]1(n2ccc(N)nc2=O)O[C@H](COP(=O)(O)OP(=O)(O)OP(=O)(O)O)[C@@H](O)[C@H]1O` is reported as 1.7 h (Calu-3; cellular egress; 10 µM, 24 h preincubation).
`CCN(N=O)C(N)=O` — result for “micronuclei fold increase”: 2.1 fold (HepaRG; maximum tested, 24 (unit not given); reference: vehicle).
`O=c1ccc2ccccc2o1` gave a chance response of 1.87% (NHEK; ER stress, measured: ATF4; concentration not given, 6 h).
The viability of `CC(C)C[C@@H](N)C(=O)N1CCC[C@@H]1C(=O)N[C@H](Cc1ccccc1)C(=O)N[C@H](Cc1ccccc1)C(=O)N[C@H](C)C(=O)N[C@H](CCC(=O)O)C(N)=O` is reported as 95.7% (NGF-differentiated PC-12 neurons; 80 µM, 24 h; reference: untreated).
For `CN(C)c1ccc(C(Nc2nc3c(-c4ccc([N+](=O)[O-])cc4)nn(-c4ccccc4)c3s2)P(=O)(Oc2ccccc2)Oc2ccccc2)cc1` (stereo not shown), the viability was 99.5% (BNL mouse liver cells; SRB; 0.1 µM, 10% fetal bovine serum).
For `Oc1ccc(C2(c3ccc(O)cc3)c3ccccc3-c3ccccc32)cc1`, “late apoptotic cells” read 10.9 ± 1.8% (HepG2 spheroids, dissociated; annexin V-FITC/PI flow cytometry; 1 µM, 24 h).
For `COc1cccc(-c2ccc(CN3CCCC(c4nc5ccc(C)cc5c(=O)[nH]4)C3)cc2)c1` (stereo not shown), the cytotoxicity efficacy was -51.6% (Vero-E6; CellTiter-Glo ATP; concentration not given, 72 h, retest 8-point duplicates; reference: DMSO 0%, hyamine -100%, more negative, more toxic).
For `COc1ncc(Nc2ccnc3ccc(-c4ccc(S(=O)(=O)N5CCOCC5)cc4)cc23)cn1`, the TC50 was greater than 20 µM (NIH 3T3; cytotoxicity, PrestoBlue; 96 h, 2% FBS).
`CC(C)C[C@H](NC(=O)[C@H](C)NC(=O)[C@@H](NC(=O)[C@H](CCCNC(=N)N)NC(=O)[C@H](CC(C)C)NC(=O)[C@H](Cc1c[nH]c2ccccc12)NC(=O)[C@@H]1CCCN1C(=O)[C@@H](N)CCCCN)C(C)C)C(=O)N[C@@H](CS)C(=O)N1CCC[C@H]1C(=O)NCC(=O)O` has a viability of 109% and 98.8% and 67% (A549; WST-1; 512 µM, 24 h).
With `C[C@H]1CN(c2n[nH]c3nc(N[C@H]4CC[C@H](NS(=O)(=O)CCC(F)(F)F)CC4)ncc23)CCO1` the IC50 was no less than 20 µM (Trifunctional enzyme subunit alpha, mitochondrial (HADHA, Homo sapiens, UniProt P40939); biochemical).
`O=S(=O)(c1ccc(-c2ccc3nccc(Nc4cncs4)c3c2)cc1)N1CCOCC1` has a TC50 of greater than 20 µM (NIH 3T3; cytotoxicity, PrestoBlue; 96 h, 2% FBS).
With `CCCCN(C)CCNC(=O)c1cc(-c2ccc(Cl)s2)nc2ccccc12` the maximum response was -14.7% (Vero-E6; CellTiter-Glo ATP; 72 h, first round 5-point; reference: DMSO 0%, hyamine -100%, more negative, more toxic).
For `CN1CCCN(S(=O)(=O)c2ccc(-c3ccc4ncnc(Nc5ccc(OCc6cccc(F)c6)c(Cl)c5)c4c3)cc2)CC1`, the TC50 was 44 µM (NIH 3T3; PrestoBlue; 2% FBS medium; 96 h).
